Measured values gathered from unrelated publications.
Numbered parts are unrelated; each lists some results of a single study. Changes are numbered by the printed parent chain.

Set 1 — technique: protein-binding microarray; form: hairpin DNA; sample: in vitro; concentration: not given; baseline: not given; direction: higher = stronger binding; all sequences stand within: GAGGCCG … CGGCCTCACACTC
Target: Krueppel-like factor 3, full length (KLF3, Homo sapiens, UniProt P57682, residues 1-345)
UniProt P57682, sequence (whole entry, looked up): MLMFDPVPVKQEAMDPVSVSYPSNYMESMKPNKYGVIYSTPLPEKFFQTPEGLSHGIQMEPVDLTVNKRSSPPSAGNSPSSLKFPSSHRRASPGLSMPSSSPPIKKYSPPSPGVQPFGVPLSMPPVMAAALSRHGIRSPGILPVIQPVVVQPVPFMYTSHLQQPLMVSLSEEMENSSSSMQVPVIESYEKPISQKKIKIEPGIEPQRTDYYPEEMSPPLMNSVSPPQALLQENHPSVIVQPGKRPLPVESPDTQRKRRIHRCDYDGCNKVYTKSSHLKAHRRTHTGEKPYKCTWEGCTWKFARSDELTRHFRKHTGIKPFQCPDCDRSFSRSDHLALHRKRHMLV
Setting: whole hairpin DNA, median over replicate spots
The median fluorescence of `ACGGCGCCCAGCCTCCTGGCTGGGCGCCGT` is reported as 8610 a.u.
`GCCACGCCCAGCCTCCTGGCTGGGCGTGGC` has a median fluorescence of 9450 a.u.
`ACCGAGCCCAGCCTCCTGGCTGGGCTCGGT` has a median fluorescence of 8020 a.u.
With `ACCACGCCCAGCCTCCTGGCTGGGCGTGGT (5mC at 15)` the median fluorescence was 9610 a.u.
For `ACGGCGCCCAGCCTCCTGGCTGGGCGCCGT (5mC at 35)`, the median fluorescence was 8390 a.u.
`ACCGCGCCCAGCCTCCTGGCTGGGCGCGGT (5mC at 12 34)` gave a median fluorescence of 8490 a.u.
`ACCCGGCCCAGCCTCCTGGCTGGGCCGGGT (5mC at 11 33)` has a median fluorescence of 7870 a.u.
The median fluorescence of `ACCACGCCCTGCCTCCTGGCAGGGCGTGGT` is reported as 10300 a.u.

Set 2 — technique: RNA Bind-n-Seq; form: RNA; sample: in vitro; concentration: 100 nM; baseline: input RNA pool; direction: higher = stronger binding
Target: RING finger protein unkempt homolog, zinc fingers 1-6, SBP tag (UNK, Homo sapiens, UniProt Q9C0B0, residues 30-357)
UniProt Q9C0B0, sequence (30-357, looked up): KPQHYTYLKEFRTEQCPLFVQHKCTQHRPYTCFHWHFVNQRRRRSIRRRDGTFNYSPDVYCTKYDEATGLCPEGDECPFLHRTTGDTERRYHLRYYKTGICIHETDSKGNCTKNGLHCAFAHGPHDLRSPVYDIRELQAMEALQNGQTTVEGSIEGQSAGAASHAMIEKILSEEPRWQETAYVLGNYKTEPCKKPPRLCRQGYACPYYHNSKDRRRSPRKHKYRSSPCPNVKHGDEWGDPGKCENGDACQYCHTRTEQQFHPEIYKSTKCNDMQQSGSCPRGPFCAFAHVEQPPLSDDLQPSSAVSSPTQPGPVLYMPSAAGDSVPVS
Setting: RNA with constant flanks, vertebrate orthologous sites, ends assumed
With `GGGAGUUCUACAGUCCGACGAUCUGGGUUACUCCUAUUAUUAUCAAGUAGCUGGAAUUGUGAAGGUCGGAGUAGUUAGAUCUUUAGCUUUUAUUCCUUAUUUUUUUUGUAUUACUCUCCAUGUGUAUAAAUUAUUGAUCAUGUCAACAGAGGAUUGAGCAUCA` the bound/input enrichment was 5.07 ratio.
For `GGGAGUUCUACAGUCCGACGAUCCAGACCAACUCACUAGCUCUCAGCACUCGUUAGAGGGGUAUUUGGGCGCAGCCAGUGGAACGGAGAUGUCCUACCAACAGGACCCCUCCAAUCAUACAACAGUCUCCUGCAGCCCCCCCACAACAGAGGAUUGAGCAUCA`, the bound/input enrichment was 0.278 ratio.
The bound/input enrichment of `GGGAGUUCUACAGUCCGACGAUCUCCUCAACUUGUUCUAGCUUGUGAUCCUUCAAAAUUGGAUCAUGCAUUAGUGCUAGAUUCUAGAAAUUUUCGCUUCUCUCCACUGAUCAGAGAAACAGACAAUAAAAACAGAAAUACAAGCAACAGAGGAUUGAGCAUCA` is reported as 1.03 ratio.
`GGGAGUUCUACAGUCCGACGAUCACGCCCUUAUGUGCUGUUCCCGCCAGGGGCAAGGGCCAGAUGUCUCGCCGAGGACCUGCGUUUAAAACAUUUUUUAAAUCGUUGUACAGGAAGAGAUGUAAACAGCAUCUCAAAGUCCAGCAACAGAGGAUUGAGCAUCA` has a bound/input enrichment of 0.157 ratio.
`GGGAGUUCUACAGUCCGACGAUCAGCUGACUCACUCAUUAGGGAGAGCUGCACAUAUAGCUGUUCUUGAUUCAGAAAUAUUUUUAGAGAAAUUCUUUCUGGUUGCUGCCCUCAAAUAUUUCCAAUAAGAUAAAAACAUUGUUACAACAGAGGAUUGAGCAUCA` has a bound/input enrichment of 0.555 ratio.
For `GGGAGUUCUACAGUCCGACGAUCAUUUAGACCAUGGAGUCUAACCAGGGGGCUAGAAAAAGUAAAGCUGACUUUGUAAAAUUAUAGCCAUAUGCAGCUGCAUAACAGGACUAUCACUAGCAGCUGUGUUAAAGUAUUUAUAAACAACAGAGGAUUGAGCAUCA`, the bound/input enrichment was 1.2 ratio.
For `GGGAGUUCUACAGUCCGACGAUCCUUUCUCCCCUGCUGAGAGGGAGUGUGGGGAGCCCAGGAAGACCCUCAACUGUUCCAAUCCAGUAUUUUUUUUUCUUUUUUAAAAAUCACUGUAUUUAUUAUGACGAUGGUGACUCCCCACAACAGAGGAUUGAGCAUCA`, the bound/input enrichment was 0.435 ratio.
With `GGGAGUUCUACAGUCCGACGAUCCCCAGGGACUCCUCUGGGGACAGGUGGUGGGGCCCACUGGCCAUAUCAUCGAGGCCGUUUUAGCUUCAUUUAAAAAAAAAUUUAACAGUGCCCUUAUUAACCUGUAUGACUGAGAUUUGGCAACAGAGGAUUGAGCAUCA` the bound/input enrichment was 0.427 ratio.

Set 3 — technique: protein-binding microarray; form: double-stranded DNA, one strand shown; sample: in vitro; concentration: 250 nM; setting: 60-bp whole probe; added: salmon DNA 0.4 mg/ml; baseline: random background probes; direction: higher = stronger binding; all sequences stand within: GCCTAGCAC … GTCTTGATTCGCTTGACGCTGCTG
Target: Interferon regulatory factor 7, full length, phosphomimetic (IRF7, Homo sapiens, UniProt Q92985, residues 1-503, S101K/S471D/S472D/S475D/S476D/S477D/S483D/S484D/S487D)
UniProt Q92985, sequence (whole entry, unmodified, looked up): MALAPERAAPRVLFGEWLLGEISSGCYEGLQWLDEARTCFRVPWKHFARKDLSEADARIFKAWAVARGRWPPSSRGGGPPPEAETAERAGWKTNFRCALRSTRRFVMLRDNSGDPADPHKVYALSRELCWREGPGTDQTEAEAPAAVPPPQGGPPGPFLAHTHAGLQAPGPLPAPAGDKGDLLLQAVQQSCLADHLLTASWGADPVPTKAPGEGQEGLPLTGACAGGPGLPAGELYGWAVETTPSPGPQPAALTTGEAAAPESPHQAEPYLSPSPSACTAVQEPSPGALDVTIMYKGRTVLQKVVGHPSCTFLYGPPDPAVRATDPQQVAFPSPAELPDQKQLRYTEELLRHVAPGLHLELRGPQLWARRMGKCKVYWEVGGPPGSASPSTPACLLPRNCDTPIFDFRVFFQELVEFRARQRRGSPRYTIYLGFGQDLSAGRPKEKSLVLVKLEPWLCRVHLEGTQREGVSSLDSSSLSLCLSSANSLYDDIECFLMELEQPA
`GACGATCTCAGTTTCGAGATGTGCTAG` has a log fluorescence of 5.14 z-score.
With `CTGGATCTCAGACTGTGTCCGTGCTAG` the log fluorescence was -0.147 z-score.
With `CTCGTGGTCCTGCCCTGCCTGTGCTAG` the log fluorescence was -0.349 z-score.
`TTAGATTTTAGACTGGATTAGTGCTAG` gave a log fluorescence of -0.0794 z-score.
`TTACGTCTCGGTCTCGGTTAGTGCTAG` gave a log fluorescence of 2 z-score.
For `TCATCTTCCCTTTTAAGACTGTGCTAG`, the log fluorescence was 1.8 z-score.
For `GACGGTTTCCTTATCCTCACGTGCTAG`, the log fluorescence was 3.42 z-score.
`GACGGTATCCACTATCGGGACGTGCTA` gave a log fluorescence of 0.0333 z-score.

Mixed results — starting sequence: viral docking peptide; CKVKRKLFGSENI
`CKVARKLFGSENI [K4A]` — result for “normalised enrichment score”: 0.875 (CCNB2, cyclin fold, Cln2 fusion (human); yeast growth competition, sequencing; yeast; weak parent motif; baseline: not given, higher = stronger binding).

For quick reference, copied from above (set 2):
`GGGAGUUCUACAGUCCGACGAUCACGCCCUUAUGUGCUGUUCCCGCCAGGGGCAAGGGCCAGAUGUCUCGCCGAGGACCUGCGUUUAAAACAUUUUUUAAAUCGUUGUACAGGAAGAGAUGUAAACAGCAUCUCAAAGUCCAGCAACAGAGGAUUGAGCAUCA` has a bound/input enrichment of 0.157 ratio.
`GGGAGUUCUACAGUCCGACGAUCAGCUGACUCACUCAUUAGGGAGAGCUGCACAUAUAGCUGUUCUUGAUUCAGAAAUAUUUUUAGAGAAAUUCUUUCUGGUUGCUGCCCUCAAAUAUUUCCAAUAAGAUAAAAACAUUGUUACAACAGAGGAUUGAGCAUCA` has a bound/input enrichment of 0.555 ratio.
For `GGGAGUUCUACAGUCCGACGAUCAUUUAGACCAUGGAGUCUAACCAGGGGGCUAGAAAAAGUAAAGCUGACUUUGUAAAAUUAUAGCCAUAUGCAGCUGCAUAACAGGACUAUCACUAGCAGCUGUGUUAAAGUAUUUAUAAACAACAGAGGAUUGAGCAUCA`, the bound/input enrichment was 1.2 ratio.
